Measured values gathered from unrelated publications.
Each numbered part is a random draw from the data of one study; scales do not carry over between parts. Positions count from the first letter of the parent shown.

Block 1 — technique: RNA Bind-n-Seq; molecule type: RNA; sample: in vitro; concentration: 100 nM; relative to: input RNA pool; direction: higher = stronger binding; endpoint: bound/input enrichment
Target: RING finger protein unkempt homolog, zinc fingers 1-6, SBP tag (UNK, Homo sapiens, UniProt Q9C0B0, residues 30-357)
Chain of UniProt Q9C0B0 (30-357, looked up): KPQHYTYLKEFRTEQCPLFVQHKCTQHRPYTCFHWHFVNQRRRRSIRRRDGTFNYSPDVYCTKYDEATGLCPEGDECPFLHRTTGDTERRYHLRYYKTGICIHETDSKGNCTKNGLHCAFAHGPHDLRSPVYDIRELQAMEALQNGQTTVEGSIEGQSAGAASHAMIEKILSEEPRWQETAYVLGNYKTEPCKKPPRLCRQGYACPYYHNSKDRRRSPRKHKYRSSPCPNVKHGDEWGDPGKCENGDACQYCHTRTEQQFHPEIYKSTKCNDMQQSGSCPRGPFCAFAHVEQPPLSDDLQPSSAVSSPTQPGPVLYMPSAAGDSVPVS
Setting: RNA with constant flanks, vertebrate orthologous sites, ends assumed
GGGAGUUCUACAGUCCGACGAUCUCUCUCAUUUUAUAUGUCCAAAAAAGGUUUUUGAAUUUUUAAAUACUUGCUAGUUUUAGUUAGCUCUGCCCUCAUGAAGUAUUACUAUAAUUCACCACAAACAUAUCUGUCUGAAUUACUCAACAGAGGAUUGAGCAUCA: 0.643 ratio
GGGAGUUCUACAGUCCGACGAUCGUGUUUUGUACAGGGCAUUCUCUGUACUAGUUUGUUGUGGUUAUAAAACAAUUAGCAGAAUAGCCUACAUUUGUAUUUAUUUUCUAUUCCAUACUUCUGCCCAUGUUGUUUUCUCUCAGUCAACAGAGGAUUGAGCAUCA: 1.47 ratio
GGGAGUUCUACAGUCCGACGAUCGUGCAAGGAGAUUAUCCCAACUAGUGAAUUUAUUAACAGUAAGUUGACAGCAAAAGCAAAUAGGCAGCUUCAAGACCCUUUAGUCAUCAUGACAGGAAACAUCCCAACAUGGCUCACUGACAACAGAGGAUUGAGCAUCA: 1.22 ratio
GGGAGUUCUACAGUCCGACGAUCGUUAGGUCAUGACCCUUAUAGGUUAGGUCAUGAUGCCUACAGGUUAGGGCAGGACCCCUAUAGAUUAGGCCAUGAUCCCUACAGACUAACUCCUGAUCCCUAUAGGAUGUCACCUAGACCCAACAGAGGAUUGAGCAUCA: 0.631 ratio
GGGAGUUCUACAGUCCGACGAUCGUCCUCUGACUGGAUGAAGACGGUACCAAGUUACAACCAAACAAAUAGCUCUCUGGACUUUAGAAAUUAUGUGACGAGAGAUGAGAAUCUGGAACCACUGCCCAAAAACUGGGAAAUGGCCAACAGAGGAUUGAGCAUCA: 0.328 ratio
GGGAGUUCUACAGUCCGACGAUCACCUUUUGUAGGCCAAAUACCCUCCUUCUACUGCUUCUGCCAACUGGAAGCACAGAAAACUAGAAUUUCAUUUUAUUUUGUUUAAAAAAAAAAAAUUGAUUUCUUGUAACAUCCACUAGGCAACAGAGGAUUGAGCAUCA: 0.498 ratio
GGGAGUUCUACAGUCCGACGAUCGUUGUGACCCAUUUAACAUACACAAAAAACUAGCCAAAAAAAAUUUGCAUGUAAUUGACUUAGAUGAUGCCACUUUUCUGAGUGCAAAAUUUGGAAGACAGCUUGUACCUGGGUGGAAGCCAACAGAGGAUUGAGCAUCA: 1.54 ratio
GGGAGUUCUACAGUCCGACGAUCAGCUUCUGGUGACAUUUGGCCUGGCCUUUCAGCGUAUGAUAACAGUCCAAGGUCACCCCAUAGUCCUUCUAUUGCCACCCCACCUAGUCAGAGUUCAUCUUGCUCUGAUGCCCCUCUGCUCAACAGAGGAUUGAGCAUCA: 0.656 ratio
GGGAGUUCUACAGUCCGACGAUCCAGUGCCAUGGUGGAUGGAUCCGAGCUGAAGAAAAUCCGAUCCAAUUCACGCAUUUACCACCGCUACUUUCUCCUUGACGCGGACAUGCAGUCUUUAAGAUGGGAGCCCUCAAAGAAGGACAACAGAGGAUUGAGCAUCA: 0.385 ratio
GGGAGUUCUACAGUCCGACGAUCCCAUUCUUCCACGUAGGGUUGGCCUCGGAUCUAUAGGAUUUAUGACAAAUGUAUUAUAUCUAAUUGCAUUGAGUUAUUUUUUAUGGGUUUGUGAAUAGAGAUGGCAUCUCCUACAUUAAACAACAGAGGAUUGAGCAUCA: 0.465 ratio
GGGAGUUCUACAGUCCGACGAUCACCUCCAAUAGGCUAAUUCAGGGAAAGGAAACAGGCUUCAGGGAAUAUAAAUUAAUAUAGUAGUAGUCAUGAAGAAUAACUUUGAUAUAACUGAUUGGGGGAGUGAUGGCAACUUGUGAACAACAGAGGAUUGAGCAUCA: 1.23 ratio

Block 2 — technique: RNAcompete; molecule type: RNA; sample: in vitro; concentration: 20 nM; setting: 7-mer, probes averaged, single round; relative to: mean of 7-mers; direction: higher = stronger binding; endpoint: 7-mer Z-score
Target: PABPC1L2, full length, GST fusion (mouse, UniProt A0ABA7IW68)
Construct (chain): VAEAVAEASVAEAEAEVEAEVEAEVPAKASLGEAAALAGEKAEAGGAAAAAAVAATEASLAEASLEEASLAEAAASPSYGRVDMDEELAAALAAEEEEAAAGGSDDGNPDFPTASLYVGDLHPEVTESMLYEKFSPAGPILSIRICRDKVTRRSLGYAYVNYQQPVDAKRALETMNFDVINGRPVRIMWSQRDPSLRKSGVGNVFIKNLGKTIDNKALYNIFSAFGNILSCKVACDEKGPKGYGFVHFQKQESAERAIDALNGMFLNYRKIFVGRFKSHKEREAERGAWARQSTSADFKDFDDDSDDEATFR
UCGGUUC: -0.333
CCCAAUU: -0.313
AUCCCUG: -0.38
UUUGCUG: -0.427
GCCCAGU: -0.228
CGGUUGG: -0.0283
AUCCCCA: -0.34
UAGGGGG: 0.521
CAUCUCG: -0.349
CGUUGUA: -0.313
CUAGCAA: 0.0297
UAGACUA: -0.0917
CACGAGC: -0.122
UAAAUAA: 1.93
UGGAACU: -0.15
AGUUAUG: 0.0497
AUAUGCG: 0.0478
CACAGAA: 0.436
GCAUUGG: 0.0315
UAGCCGU: -0.349

Block 3 — target: CREBL2, bZIP domain (human); technique: DHFR protein complementation; sample: yeast; relative to: wild-type JUN-FOS pair; direction: higher = stronger binding; endpoint: binding fitness
Setting: single substitutions, most at no-binding floor
Starting sequence: JUN, bZIP domain (human); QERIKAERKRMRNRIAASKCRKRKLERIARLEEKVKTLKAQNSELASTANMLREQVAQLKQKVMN; partner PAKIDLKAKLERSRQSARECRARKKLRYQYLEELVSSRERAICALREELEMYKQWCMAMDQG
M51Q: -1.54 natural log
V56A: -1.5 natural log
L31K: -1.59 natural log
K34Q: -1.45 natural log
A46H: -1.43 natural log
R53G: -1.34 natural log
E32N: -1.53 natural log
S47T: -1.43 natural log
I28F: -1.46 natural log
E33L: -1.5 natural log
R30K: -1.24 natural log
S47F: -1.42 natural log
E44P: -1.54 natural log
V56W: -1.55 natural log
Q41S: -1.57 natural log
S43E: -1.28 natural log
L52S: -1.58 natural log
A57P: -1.52 natural log
A46T: -1.31 natural log
L38F: -1.5 natural log
A57Q: -1.44 natural log
N42V: -1.45 natural log
A49N: -1.49 natural log
K39N: -1.52 natural log
A29N: -1.21 natural log

Block 4 — technique: protein-binding microarray; molecule type: double-stranded DNA, one strand shown; sample: in vitro; concentration: 940 nM top; setting: 60-bp whole probe; added: salmon DNA 0.4 mg/ml; relative to: random background probes; direction: higher = stronger binding; endpoint: fitted relative affinity; all sequences stand within: GCCTAGCAC … GTCTTGATTCGCTTGACGCTGCTG
Target: Interferon regulatory factor 5, full length, phosphomimetic (IRF5, Homo sapiens, UniProt Q13568-2, residues 1-514, S451D/S453D/S456D/S462D)
TCATTCTTTTTTTTCTTACTGTGCTAG: 2.01 z-score
TTAGGTCTCGCTATCGGTTAGTGCTAG: 1.98 z-score
GACGATTCTAGTTTCGAGACGTGCTAG: 4.89 z-score
TTAAGTTTCGGTCTCGGTTAGTGCTAG: 15.2 z-score
TCAGATATCAGTTTCGATTAGTGCTAG: 8.24 z-score
TTAGATTTCAGTCTCGCTTAGTGCTAG: 2.25 z-score
GACGGTCTCCTTTTCCTCACGTGCTAG: 0.588 z-score
GACGGTATGGGTTTCGGGACGTGCTAG: 2.7 z-score
TTTAAAGAACCCACTATCTTGTGCTAG: 0.476 z-score
GACGATATCGGGTATAGAGACGTGCTA: -0.174 z-score
TTAGGCATCGGACTGGGTTAGTGCTAG: -0.469 z-score
TCACCATTGGTCTTCACACTGTGCTAG: 0.346 z-score
GACGGTTTCCCTTCCCTGACGTGCTAG: 2.09 z-score
GACGGTTTCGGCTATCGGGACGTGCTA: 8.51 z-score
TGTGTCCTGGCTTTGACTCTGTGCTAG: -0.373 z-score
CTAGATTTCAGACTGGATTAGTGCTAG: -0.359 z-score
CTCTAAGACACAAGATCAGAGTGCTAG: -0.0449 z-score
GACAGTTTCGGTTCCGGGACGTGCTAG: 14.9 z-score
GACGGTTTCGAAACTGGGGACGTGCTA: 7.43 z-score
ATAGGTTTCGGACTGGGTTAGTGCTAG: 6.58 z-score
TTAGGTATCGACGTTCGGTTAGTGCTA: 5.03 z-score

Block 5 — technique: DHFR PCA, deep sequencing; sample: yeast; added: (+)-ABA 2500 µM; relative to: wild-type fitted maximum; direction: higher = stronger binding; endpoint: relative binding score
Target: ABI1, truncated, D143A, DHFR fusion (Arabidopsis thaliana)
Setting: methotrexate growth selection, single substitutions
Starting sequence: PYL1, truncated, DHFR fusion (Arabidopsis thaliana); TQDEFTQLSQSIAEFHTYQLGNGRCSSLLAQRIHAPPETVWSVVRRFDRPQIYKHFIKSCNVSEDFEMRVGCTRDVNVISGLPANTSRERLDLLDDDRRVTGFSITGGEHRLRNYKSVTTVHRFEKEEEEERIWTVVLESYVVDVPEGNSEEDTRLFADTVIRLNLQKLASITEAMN; partner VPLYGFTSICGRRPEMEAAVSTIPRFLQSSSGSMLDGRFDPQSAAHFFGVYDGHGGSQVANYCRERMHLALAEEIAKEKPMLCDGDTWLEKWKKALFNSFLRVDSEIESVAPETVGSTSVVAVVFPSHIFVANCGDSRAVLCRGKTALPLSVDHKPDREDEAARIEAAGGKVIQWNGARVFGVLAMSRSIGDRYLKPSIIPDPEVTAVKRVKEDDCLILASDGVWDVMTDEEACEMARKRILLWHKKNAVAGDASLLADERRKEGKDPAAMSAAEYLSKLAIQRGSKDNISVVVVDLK
R111K: 93.3%
L91K: 13.7%
V161C: 89.8%
M68E: 88.5%
S80Q: 84.9%
V78H: 70.3%
E64N: 96.5%
S104I: 88.6%
Q51V: 75.2%
R45L: 16.7%
D159K: 83.1%
E109N: 102%
L20M: 91.2%
Q2V: 94.9%
I12H: 88.6%
K168P: -3.29%
H55I: 92.7%

Block 6 — target: CCND2, cyclin fold, Cln2 fusion (human); technique: yeast growth competition, sequencing; sample: yeast; setting: weak parent motif; relative to: not given; direction: higher = stronger binding; endpoint: normalised enrichment score
Starting sequence: RB1 docking peptide (human); PKPLKKLRFDIEG; partner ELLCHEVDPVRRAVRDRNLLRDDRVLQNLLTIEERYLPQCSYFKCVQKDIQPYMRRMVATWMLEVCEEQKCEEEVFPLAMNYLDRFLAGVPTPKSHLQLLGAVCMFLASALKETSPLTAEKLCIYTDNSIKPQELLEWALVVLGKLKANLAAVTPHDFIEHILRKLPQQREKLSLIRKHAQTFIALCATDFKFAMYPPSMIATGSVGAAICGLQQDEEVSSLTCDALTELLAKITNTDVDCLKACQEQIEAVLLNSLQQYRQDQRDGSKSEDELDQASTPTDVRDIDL
PKSLKKLRFDIEG [P3S]: 0.621
PKPLKKLRFDCEG [I11C]: 0.301
PKPLKKLRFDIEN [G13N]: -0.222
PKPLKKLRADIEG [F9A]: 0.566
PKPLKKQRFDIEG [L7Q]: 0.0353
PKPLKYLRFDIEG [K6Y]: -0.163
PKELKKLRFDIEG [P3E]: 0.501
PKPLKKLRLDIEG [F9L]: 0.478
PKPLKKLRFDILG [E12L]: -0.000983
PKPLKKLRFYIEG [D10Y]: 0.507
PKTLKKLRFDIEG [P3T]: 0.161
PKPLKKLRFDVEG [I11V]: 0.726
PKPLKKLYFDIEG [R8Y]: 0.136
PKPLKKLRFDIQG [E12Q]: 0.0423
PKPLKILRFDIEG [K6I]: 0.216
PKPLKKLRFDIEM [G13M]: 0.282
PKPLLKLRFDIEG [K5L]: -0.0382
PKPLKKLRKDIEG [F9K]: 0.326
PKPLIKLRFDIEG [K5I]: 0.193
PKPLKKLRFDLEG [I11L]: 0.768
PKPLKKLRIDIEG [F9I]: 0.247
PRPLKKLRFDIEG [K2R]: 0.639

A few entries again (block 3):
I28F: -1.46 natural log
E33L: -1.5 natural log
R30K: -1.24 natural log
S47F: -1.42 natural log
E44P: -1.54 natural log
V56W: -1.55 natural log
Q41S: -1.57 natural log
S43E: -1.28 natural log
L52S: -1.58 natural log
A57P: -1.52 natural log
A46T: -1.31 natural log
L38F: -1.5 natural log
A57Q: -1.44 natural log
N42V: -1.45 natural log
A49N: -1.49 natural log
K39N: -1.52 natural log
A29N: -1.21 natural log
